Results pooled from the literature.
Parts stem from different laboratories: compare values within a part only. “And” joins repeats or separate records; there may be more than shown.
UniProt P27361, sequence (whole entry, looked up): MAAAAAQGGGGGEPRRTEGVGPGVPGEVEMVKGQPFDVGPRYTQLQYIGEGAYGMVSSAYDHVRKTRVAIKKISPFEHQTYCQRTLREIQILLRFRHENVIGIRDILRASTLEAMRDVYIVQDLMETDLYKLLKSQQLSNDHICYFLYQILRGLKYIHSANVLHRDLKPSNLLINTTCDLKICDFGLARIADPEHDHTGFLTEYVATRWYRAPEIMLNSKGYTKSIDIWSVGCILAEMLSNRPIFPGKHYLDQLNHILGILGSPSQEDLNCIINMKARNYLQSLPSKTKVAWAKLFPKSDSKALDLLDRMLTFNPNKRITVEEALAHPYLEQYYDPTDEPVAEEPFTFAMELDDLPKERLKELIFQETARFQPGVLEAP
UniProt P53671, sequence (whole entry, looked up): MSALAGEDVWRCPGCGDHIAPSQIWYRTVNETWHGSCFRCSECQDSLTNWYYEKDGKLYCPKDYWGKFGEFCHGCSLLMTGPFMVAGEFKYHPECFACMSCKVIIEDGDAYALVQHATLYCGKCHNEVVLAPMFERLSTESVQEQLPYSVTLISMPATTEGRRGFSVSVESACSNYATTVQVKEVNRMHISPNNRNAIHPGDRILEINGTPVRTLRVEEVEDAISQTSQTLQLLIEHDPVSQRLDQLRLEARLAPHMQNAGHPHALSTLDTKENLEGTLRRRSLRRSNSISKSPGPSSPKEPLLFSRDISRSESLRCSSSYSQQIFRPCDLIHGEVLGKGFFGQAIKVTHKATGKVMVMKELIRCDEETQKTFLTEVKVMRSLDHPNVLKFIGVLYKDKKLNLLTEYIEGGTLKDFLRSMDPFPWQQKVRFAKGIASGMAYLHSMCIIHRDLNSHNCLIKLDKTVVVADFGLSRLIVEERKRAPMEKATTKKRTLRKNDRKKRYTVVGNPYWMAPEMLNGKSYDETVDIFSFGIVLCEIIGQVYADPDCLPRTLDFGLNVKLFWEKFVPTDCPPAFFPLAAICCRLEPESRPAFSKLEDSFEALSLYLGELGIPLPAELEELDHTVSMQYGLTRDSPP
UniProt P28482, sequence (whole entry, looked up): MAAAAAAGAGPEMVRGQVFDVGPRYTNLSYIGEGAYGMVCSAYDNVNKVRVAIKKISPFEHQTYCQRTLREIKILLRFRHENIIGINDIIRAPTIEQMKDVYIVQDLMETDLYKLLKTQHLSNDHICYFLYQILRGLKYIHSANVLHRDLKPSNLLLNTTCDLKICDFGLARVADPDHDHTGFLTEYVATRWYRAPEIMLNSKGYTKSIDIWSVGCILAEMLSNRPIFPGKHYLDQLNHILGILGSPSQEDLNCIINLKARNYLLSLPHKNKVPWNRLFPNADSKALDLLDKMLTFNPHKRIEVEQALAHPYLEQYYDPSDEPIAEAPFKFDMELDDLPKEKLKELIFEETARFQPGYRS

Block 1
Target: DNA polymerase theta, ATPase domain (POLQ, Homo sapiens, UniProt O75417)
UniProt O75417, sequence (whole entry, unmodified, looked up): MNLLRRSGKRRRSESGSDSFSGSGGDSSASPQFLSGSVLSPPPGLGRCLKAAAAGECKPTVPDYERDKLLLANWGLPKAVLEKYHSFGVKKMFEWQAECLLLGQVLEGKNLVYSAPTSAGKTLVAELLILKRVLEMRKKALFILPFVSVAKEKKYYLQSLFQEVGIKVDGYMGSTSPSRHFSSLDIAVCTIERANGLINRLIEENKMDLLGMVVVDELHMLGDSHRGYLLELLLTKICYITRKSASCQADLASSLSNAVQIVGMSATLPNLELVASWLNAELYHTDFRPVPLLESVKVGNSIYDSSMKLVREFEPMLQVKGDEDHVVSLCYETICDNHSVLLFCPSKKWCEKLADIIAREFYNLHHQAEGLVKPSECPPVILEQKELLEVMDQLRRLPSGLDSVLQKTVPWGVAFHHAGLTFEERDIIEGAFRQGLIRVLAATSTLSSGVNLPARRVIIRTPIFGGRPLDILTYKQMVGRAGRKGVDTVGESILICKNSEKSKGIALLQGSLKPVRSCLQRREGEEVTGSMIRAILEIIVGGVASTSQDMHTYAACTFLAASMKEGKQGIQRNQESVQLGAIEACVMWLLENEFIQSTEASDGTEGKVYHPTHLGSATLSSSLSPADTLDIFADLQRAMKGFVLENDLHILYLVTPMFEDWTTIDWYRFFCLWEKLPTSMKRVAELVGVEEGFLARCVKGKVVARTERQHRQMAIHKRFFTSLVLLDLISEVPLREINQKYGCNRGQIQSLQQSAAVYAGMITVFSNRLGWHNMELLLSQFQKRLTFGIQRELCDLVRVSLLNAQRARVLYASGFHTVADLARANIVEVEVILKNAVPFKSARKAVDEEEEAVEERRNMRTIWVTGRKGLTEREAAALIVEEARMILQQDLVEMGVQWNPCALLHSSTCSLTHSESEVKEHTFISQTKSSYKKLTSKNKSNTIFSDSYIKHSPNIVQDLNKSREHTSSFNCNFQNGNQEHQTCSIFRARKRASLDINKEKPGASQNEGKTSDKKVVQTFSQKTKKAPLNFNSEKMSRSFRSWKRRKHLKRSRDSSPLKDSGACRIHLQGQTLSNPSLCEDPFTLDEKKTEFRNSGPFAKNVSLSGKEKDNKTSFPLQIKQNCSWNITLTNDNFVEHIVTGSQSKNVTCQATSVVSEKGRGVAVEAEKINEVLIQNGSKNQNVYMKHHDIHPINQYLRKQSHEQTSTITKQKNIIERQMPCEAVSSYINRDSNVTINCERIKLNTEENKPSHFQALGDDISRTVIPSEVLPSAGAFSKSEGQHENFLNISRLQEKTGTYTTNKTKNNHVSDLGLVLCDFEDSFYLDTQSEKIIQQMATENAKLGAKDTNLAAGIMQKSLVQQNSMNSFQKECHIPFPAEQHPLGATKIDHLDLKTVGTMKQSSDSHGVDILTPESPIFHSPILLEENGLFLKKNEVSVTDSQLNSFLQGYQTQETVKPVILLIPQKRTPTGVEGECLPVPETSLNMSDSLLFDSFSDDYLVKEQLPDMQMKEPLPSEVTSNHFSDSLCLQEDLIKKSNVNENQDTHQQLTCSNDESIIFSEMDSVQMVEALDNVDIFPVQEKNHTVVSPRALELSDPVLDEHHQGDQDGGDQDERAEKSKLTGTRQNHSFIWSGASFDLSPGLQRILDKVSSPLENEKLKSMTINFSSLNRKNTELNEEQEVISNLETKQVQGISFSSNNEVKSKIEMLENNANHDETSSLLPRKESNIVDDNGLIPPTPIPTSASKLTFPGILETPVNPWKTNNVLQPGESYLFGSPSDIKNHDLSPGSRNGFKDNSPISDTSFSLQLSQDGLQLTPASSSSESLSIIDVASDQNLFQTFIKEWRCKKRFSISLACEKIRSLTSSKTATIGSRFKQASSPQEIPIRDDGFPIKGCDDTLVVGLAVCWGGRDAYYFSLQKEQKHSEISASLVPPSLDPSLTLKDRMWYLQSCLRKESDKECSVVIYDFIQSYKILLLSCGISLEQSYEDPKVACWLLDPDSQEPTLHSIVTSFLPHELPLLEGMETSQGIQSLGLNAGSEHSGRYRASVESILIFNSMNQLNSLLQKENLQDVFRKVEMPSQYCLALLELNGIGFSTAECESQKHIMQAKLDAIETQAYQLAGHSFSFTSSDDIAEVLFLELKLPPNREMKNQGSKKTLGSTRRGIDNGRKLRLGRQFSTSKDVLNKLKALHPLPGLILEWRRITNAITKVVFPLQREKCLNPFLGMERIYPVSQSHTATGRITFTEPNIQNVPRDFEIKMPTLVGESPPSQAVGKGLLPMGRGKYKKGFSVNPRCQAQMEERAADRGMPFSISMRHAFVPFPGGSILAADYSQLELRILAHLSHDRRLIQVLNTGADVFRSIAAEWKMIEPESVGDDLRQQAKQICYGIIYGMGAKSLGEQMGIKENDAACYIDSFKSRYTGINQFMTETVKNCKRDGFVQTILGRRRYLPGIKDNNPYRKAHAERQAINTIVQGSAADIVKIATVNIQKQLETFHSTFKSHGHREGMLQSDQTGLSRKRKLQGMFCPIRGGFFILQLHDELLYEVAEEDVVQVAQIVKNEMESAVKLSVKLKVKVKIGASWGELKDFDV
Read-out: enzyme activity
Action: inhibitor
Tested at: 77 µM
Relative to: untreated
| SMILES | remaining activity |
| --- | --- |
| NC[C@H]1O[C@H](O[C@H]2[C@H](O)[C@@H](O[C@H]3O[C@H](CO)[C@@H](O)[C@H](N)[C@H]3O)[C@H](N)C[C@@H]2N)[C@H](N)C[C@@H]1O | 99.8% |
| CCCCc1cc2ccccc2c(OCCN(C)C)n1 | 101% |
| COc1ccccc1OCC(O)COC(N)=O (stereo not shown) | 89.4% and 98.7% |
| Cc1cc(C2CCCCC2)n(O)c(=O)c1 | 101% and 100% |
| COc1ccc2c(c1)c1c3c(c4c5ccccc5n(C)c4c1n2CC(O)CN(C)C)C(=O)NC3=O (stereo not shown) | 96.6% |
| NCCS(=O)(=O)O | 108% |
| CN(C)[C@@H]1C(O)=C(C(=O)NCN2CCCC2)C(=O)[C@@]2(O)C(O)=C3C(=O)c4c(O)cccc4[C@@](C)(O)[C@H]3C[C@@H]12 | 101% |
| COc1cc(C(C)=O)ccc1O | 95.8% |
| CC(C)(O)CC[C@@H](O)[C@](C)(O)[C@H]1CC[C@@]2(O)C3=CC(=O)[C@@H]4C[C@@H](O)[C@@H](O)C[C@]4(C)[C@H]3CC[C@]12C | 103% |

Block 2
Cell line: normal organoid sample D
Method: CellTiter-Glo
Species: human
Sample: normal-adjacent epithelium
Tested at: 0.1 µM
Relative to: DMSO
| SMILES | viability |
| --- | --- |
| O=C(Nc1ccc(Oc2ccc(F)cc2)cc1)N1CCc2ncccc2[C@H]1c1ccc(F)cc1 | 101% and 108% |
| COCCOc1nc(-c2ccc(Cl)nc2)nc2c1CN(C(=O)c1ncn3ccccc13)CC2 | 115% and 123% |
| COc1ccc2cc(OCC3(C(=O)O)CN(C(=O)c4ccc(F)cc4)C3)ccc2c1 | 118% and 97.3% |
| CS(=O)(=O)NCC[C@H](NC(=O)c1cncc2c1cnn2-c1ccc(F)cc1)c1ccnc(S(C)(=O)=O)c1 | 106% and 98.1% |
| Cc1c[nH]c2nccc(Oc3c(F)cc(Nc4cc(Cl)nc(N)n4)cc3F)c12 | 115% and 126% |
| O=C(c1ccc(F)cc1)N1CC(COc2ccc(Br)cc2)(C(=O)O)C1 | 109% and 96.4% |
| CC(C)CC(=O)N1CCc2nc(-c3ccc(Br)cc3)nc(N(C)Cc3ccccc3)c2C1 | 108% and 127% |

Block 3
SMILES: Cc1nc(Nc2ncc(C(=O)Nc3c(C)cccc3Cl)s2)cc(N2CCN(CCO)CC2)n1
Action: inhibitor
| target | setting | inhibition [%] |
| --- | --- | --- |
| AAK1 (Homo sapiens, UniProt Q2M2I8) | 10 µM | < 50 |
| ANKK1 (Homo sapiens, UniProt Q8NFD2) | 10 µM | < 50 |
| MAPK1 (Homo sapiens, UniProt P28482) | 10 µM | < 50 |
| PAK4 (Homo sapiens, UniProt O96013) | 1 µM | < 50 |
| TEK (Homo sapiens, UniProt Q02763) | 1 µM | < 50 |
| LIM domain kinase 2 (LIMK2, Homo sapiens, UniProt P53671) | 10 µM | 100 |
| ERBB2 (Homo sapiens, UniProt P04626) | 10 µM | 85 |
| MAPK3 (Homo sapiens, UniProt P27361) | 10 µM | < 50 |

Block 4
Target: Tyrosine-protein kinase ITK/TSK (ITK, Homo sapiens, UniProt Q08881)
UniProt Q08881, sequence (whole entry, looked up): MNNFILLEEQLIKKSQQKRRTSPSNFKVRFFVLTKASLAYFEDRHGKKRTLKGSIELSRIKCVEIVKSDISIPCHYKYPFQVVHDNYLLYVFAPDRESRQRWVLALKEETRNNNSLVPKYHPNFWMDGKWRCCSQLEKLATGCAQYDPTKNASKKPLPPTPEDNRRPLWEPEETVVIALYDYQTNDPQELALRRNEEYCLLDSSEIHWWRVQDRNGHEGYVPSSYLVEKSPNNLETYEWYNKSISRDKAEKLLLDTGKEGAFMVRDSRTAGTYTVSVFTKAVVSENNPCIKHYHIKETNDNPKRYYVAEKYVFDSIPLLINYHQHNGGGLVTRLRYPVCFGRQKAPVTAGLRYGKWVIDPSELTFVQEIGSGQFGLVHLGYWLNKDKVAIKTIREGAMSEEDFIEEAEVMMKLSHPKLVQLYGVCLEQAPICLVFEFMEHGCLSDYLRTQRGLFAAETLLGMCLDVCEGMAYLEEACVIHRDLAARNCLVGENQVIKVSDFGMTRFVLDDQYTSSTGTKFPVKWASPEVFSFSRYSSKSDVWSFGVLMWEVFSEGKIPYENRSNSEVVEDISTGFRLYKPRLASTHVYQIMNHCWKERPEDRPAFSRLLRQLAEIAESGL
Read-out: enzyme activity
Action: inhibitor
Tested at: 0.5 µM
Relative to: control
| SMILES | remaining activity |
| --- | --- |
| N#Cc1c(NC(=O)c2cccc3ccccc23)sc2c1CCCC2 | 101% |
| CCOc1nc(NC(=O)Cc2cc(OC)ccc2OC)cc(N)c1C#N | 105% |
| O=C(Nc1cccc(Nc2nccc(Nc3cccc(C(F)(F)F)c3)n2)c1)C1CC1 | 101% |
| N#C/C(=C\c1ccc(O)c(O)c1)C(=O)NCc1ccccc1 | 98.8% |
| O=C(NC(NC(=S)Nc1ccc(F)c([N+](=O)[O-])c1)C(Cl)(Cl)Cl)C(c1ccccc1)c1ccccc1 (stereo not shown) | 94.9% |
| C[C@@H]1CCN(C(=O)CC#N)C[C@@H]1N(C)c1ncnc2[nH]ccc12 | 99.1% |
| COc1cc2ncnc(Nc3cccc(Cl)c3)c2cc1OC | 93.8% |
| Cc1cn(-c2cc(NC(=O)c3ccc(C)c(Nc4nccc(-c5cccnc5)n4)c3)cc(C(F)(F)F)c2)cn1 | 102% |
| Cn1nc2c3c(cccc31)C(=O)c1ccccc1-2 | 88.3% |
| CN([C@@H](Cc1ccc(OS(=O)(=O)c2cccc3cnccc23)cc1)C(=O)N1CCN(c2ccccc2)CC1)S(=O)(=O)c1cccc2cnccc12 | 99.4% |
| O=C1C(Cl)=C(N2C(=O)CCC2=O)C(=O)c2ccccc21 | 87.5% |
| CCN(CC)CCNC(=O)c1c(C)[nH]c(/C=C2\C(=O)Nc3ccc(F)cc32)c1C | 64.3% |
| CN(C)C[C@H]1CCn2c(c(C3=C(c4cn(C)c5ccccc45)C(=O)NC3=O)c3ccccc32)C1 | 94.9% |
| c1ccc(-c2cnc(Nc3ccc(OCCN4CCCC4)cc3)s2)cc1 | 85.2% |
| c1ccc(-c2[nH]ncc2-c2ccnc3ccccc23)nc1 | 102% |
| COc1cc2ncnc(Nc3ccc(O)c(Br)c3)c2cc1OC | 92.8% |
| Nc1cccc(-c2cc3c(Oc4cccc(O)c4)ncnc3[nH]2)c1 | 102% |
| Cc1nc2cc3nc(-c4cccs4)cnc3cc2n1C | 96.7% |
| CCN(CC)C(=O)c1ccc(Nc2nc(OCC3CCCCC3)c3[nH]cnc3n2)cc1 | 57.3% |
| COc1cc2c(cc1OC)-c1[nH]nc(Nc3cccc(F)c3)c1C2 | 85.5% |
| Cc1cc2ncc(-c3ccccc3)nc2cc1C | 100% |
| Ic1cccc(CSc2nnc(-c3ccncc3)o2)c1 | 102% |
| O=C1c2ccccc2-c2n[nH]c3cccc1c23 | 83.2% |

Other studies, line by line
| SMILES | tested on | test system | setting | how to read | endpoint | result |
| --- | --- | --- | --- | --- | --- | --- |
| CC(=O)N[C@@H](Cc1c[nH]c2ccccc12)C(=O)N[C@@H](CCC(=O)C=[N+]=[N-])C(=O)OC(C)C | – | C57BL/6 CES1-/- mice, MC-38 tumour | dose not given, day 68 after inoculation, together with: anti-PD-1 | relative to: initial | body weight | 103% and 109% and 104% |
| C[C@@H]1O[C@@]2(CS1)CN1CCC2CC1 | A-375 | – | 100 µM, 60 h | – | viability | 95.4% |
